# Results gathered from unrelated publications.
# Parts stem from different laboratories: compare values within a part only.

# Block 1
# Target: Prothrombin, mature alpha-thrombin (F2, Homo sapiens, UniProt P00734)
# Method: aptamer microarray, sandwich
# Form: DNA with 2'F-ANA
# Sample: in vitro
# Concentration: 200 nM
# Notes: whole 15-mer aptamer, many near background
# With: Cy3 exosite-II aptamer, 400 nM
# Direction: higher = stronger binding
# Strand: GGTTGGTGTGGTTGG
Modification,mean fluorescence intensity [a.u.]
2'F-ANA at 2 3 7 9 10,446
2'F-ANA at 1 2 4 6 7 8 10 11 12 13 14,90.1
2'F-ANA at 1 2 3 4 9 10 12 14,65.7
2'F-ANA at 3 5 6 8 10 12 15,57.8
2'F-ANA at 1 2 3 5 7 10 11 12 14 15,45
2'F-ANA at 2 3 4 7 9 10 13 15,211
2'F-ANA at 2 3 8 9 10 13 15,329
2'F-ANA at 4 6 7 9 12 14 15,227
2'F-ANA at 1 3 4 5 6 8 9 10 12 13 14 15,195
2'F-ANA at 1 4 6 7 8 9 10 12 14 15,54.9
2'F-ANA at 4 6 8 13 14 15,81.9
2'F-ANA at 2 5 7 13,63.9
2'F-ANA at 3 4 5 6 7 8 9 10 11 12,72.3
2'F-ANA at 2 8 10 11 13 15,152
2'F-ANA at 2 3 5 6 8 10 13 15,51.5
2'F-ANA at 1 3 4 6 7 10 12,81.9
2'F-ANA at 1 3 14 15,83.7
2'F-ANA at 1 4 5 8 9 11 13 14,46.9
2'F-ANA at 2 3 4 5 6 7 8 9 10 12 13 14,48.7
2'F-ANA at 1 2 3 7 8 10 11 12 13 14,52.8

# Block 2
# Target: Sal-like protein 4, full length isoform A (SALL4, Homo sapiens, UniProt Q9UJQ4, residues 1-1053)
# Sequence of UniProt Q9UJQ4 (whole entry, looked up): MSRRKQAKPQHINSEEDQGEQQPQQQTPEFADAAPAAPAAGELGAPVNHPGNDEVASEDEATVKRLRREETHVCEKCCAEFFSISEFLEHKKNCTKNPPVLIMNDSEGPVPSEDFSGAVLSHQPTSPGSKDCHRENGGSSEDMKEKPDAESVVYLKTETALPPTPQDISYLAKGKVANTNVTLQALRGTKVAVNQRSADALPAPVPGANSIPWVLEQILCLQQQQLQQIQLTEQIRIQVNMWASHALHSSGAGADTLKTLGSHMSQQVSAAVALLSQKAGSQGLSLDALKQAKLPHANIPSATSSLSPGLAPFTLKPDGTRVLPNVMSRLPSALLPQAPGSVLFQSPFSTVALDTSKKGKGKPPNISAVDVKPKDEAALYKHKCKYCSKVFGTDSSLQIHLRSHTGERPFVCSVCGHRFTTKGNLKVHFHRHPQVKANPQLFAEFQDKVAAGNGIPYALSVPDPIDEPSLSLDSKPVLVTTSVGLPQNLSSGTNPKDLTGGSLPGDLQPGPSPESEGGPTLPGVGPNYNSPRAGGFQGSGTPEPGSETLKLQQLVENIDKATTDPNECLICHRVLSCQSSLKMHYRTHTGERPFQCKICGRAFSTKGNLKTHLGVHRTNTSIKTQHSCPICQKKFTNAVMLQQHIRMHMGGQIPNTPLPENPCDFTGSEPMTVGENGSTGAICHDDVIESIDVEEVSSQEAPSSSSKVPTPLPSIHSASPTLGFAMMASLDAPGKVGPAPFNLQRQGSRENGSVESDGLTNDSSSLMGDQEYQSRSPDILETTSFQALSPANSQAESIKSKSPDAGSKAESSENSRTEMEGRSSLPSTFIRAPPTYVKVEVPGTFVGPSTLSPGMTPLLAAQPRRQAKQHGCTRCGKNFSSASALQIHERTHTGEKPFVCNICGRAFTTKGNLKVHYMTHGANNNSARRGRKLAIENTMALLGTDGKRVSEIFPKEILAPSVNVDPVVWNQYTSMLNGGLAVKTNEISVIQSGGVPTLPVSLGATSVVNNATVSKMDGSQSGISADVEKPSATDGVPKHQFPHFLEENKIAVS
# Method: universal PBM
# Form: double-stranded DNA, one strand shown
# Sample: in vitro
# Concentration: 600 nM
# Notes: 8-mer, flanks averaged, mean of replicates
# Direction: higher = stronger binding
Strand,E-score
CAGCCCCC,-0.338
TCAATGGA,0.0626
ACGCAGTC,-0.287
GAGATAAA,0.214
AATCTCCT,0.0345
TCCACCGA,-0.19
AAGATCCT,0.118
GTGTAAAA,0.247
ACACATGT,0.0922
AGCGTAAA,0.0909
CAGAATAA,0.22
CAAGATTG,0.128
CCATTCAC,-0.116
GTCTTGGA,-0.023
TGCGGACA,-0.114
CGTGGCGC,-0.282
AGTGACCG,-0.261
CATGTTAG,0.106
CATGCCTA,-0.0658
AATATAGT,0.377
CTGCCAAG,-0.113
CACACTCG,-0.0906
AAGTTACC,0.0429
AAGGCAAT,0.161
AGCTAGTG,-0.165

# Block 3
# Target: Interferon regulatory factor 7, full length, phosphomimetic (IRF7, Homo sapiens, UniProt Q92985, residues 1-503, S471D/S472D/S475D/S476D/S477D/S483D/S484D/S487D)
# Sequence of UniProt Q92985 (whole entry, unmodified, looked up): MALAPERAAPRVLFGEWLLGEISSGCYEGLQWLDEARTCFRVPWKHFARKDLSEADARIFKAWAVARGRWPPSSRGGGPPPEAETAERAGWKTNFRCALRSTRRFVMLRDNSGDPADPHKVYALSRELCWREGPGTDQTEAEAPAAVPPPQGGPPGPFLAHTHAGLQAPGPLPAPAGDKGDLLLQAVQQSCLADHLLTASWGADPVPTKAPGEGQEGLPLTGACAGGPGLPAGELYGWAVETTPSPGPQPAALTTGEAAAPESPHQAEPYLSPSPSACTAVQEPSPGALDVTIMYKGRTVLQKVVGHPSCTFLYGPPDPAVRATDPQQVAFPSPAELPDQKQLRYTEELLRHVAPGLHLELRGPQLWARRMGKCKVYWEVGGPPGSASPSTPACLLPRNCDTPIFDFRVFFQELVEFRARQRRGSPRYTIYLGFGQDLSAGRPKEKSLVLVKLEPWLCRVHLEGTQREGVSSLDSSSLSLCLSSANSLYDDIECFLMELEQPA
# Method: protein-binding microarray
# Form: double-stranded DNA, one strand shown
# Sample: in vitro
# Concentration: 2200 nM top
# Notes: 60-bp whole probe
# With: salmon DNA 0.4 mg/ml
# Baseline: random background probes
# Direction: higher = stronger binding
# Shared flanks, not repeated: GCCTAGCAC … GTCTTGATTCGCTTGACGCTGCTG
Strand,fitted relative affinity [z-score]
TTAGGTCTCCTTATCCATTAGTGCTAG,0.917
TTCTACTTCTCTTTTGGCTTGTGCTAG,2.78
AAAGATTTATCAAATGTGGGAGTGCTA,-1.08
TCATGTATATCTTCAGCACTGTGCTAG,0.78
TTAGATATAAGTATCGATTAGTGCTAG,-0.176
TTAGATATCGCGTATCGATTAGTGCTA,0.281
GAGGGTCTCGGACTGGGGACGTGCTAG,-1.21
TTAGATATCAGTATCAATTAGTGCTAG,0.24
GACGATTTCGTGTATCGAGACGTGCTA,1.59
TCAATTGTGGGTCTTGCACTGTGCTAG,0.34
ATCTCACTCTGTCCCTCTGTGTGCTAG,2.33
GACGATCTCAGACTGGAGACGTGCTAG,0.00102
GCCATTATGAGTCTTGAAGAGTGCTAG,0.178
TCACTTCTCCTCTAGGTTACTGTGCTA,2.4
TTAGAACTGGGGTTTCGATTCGTGCTA,6.46
ATCAGTTTAATATCTAAGATTGTGCTA,0.0231
GACGATTTCAGTTCCGAGTCGTGCTAG,2.37
GACGGTATCAGGTATCGGGACGTGCTA,-0.201
GTGGCAGGCCCTCGGGCTCCGTGCTAG,-1.44
TTAGGGCTCCTTATCCTTTAGTGCTAG,0.166
TTAGGTTTCCTCCTCCTTTAGTGCTAG,1.64
TTAGAACCGAGTATCGATTAGTGCTAG,-0.0252
GACGATATCAGACTGGGGACGTGCTAG,0.0515

# Block 4
# Target: RNA binding protein fox-1 homolog 2, RRM domain, GST-SBP tag (RBFOX2, Homo sapiens, UniProt O43251-10, residues 100-194)
# Method: RNA Bind-n-Seq
# Form: RNA
# Sample: in vitro
# Concentration: 365 nM
# Notes: natural RNA segment, single round, ends assumed
# Baseline: no-protein control
# Direction: higher = stronger binding
# Shared flanks, not repeated: GGGAGUUCUACAGUCCGACGAUC … UGGAAUUCUCGGGUGCCAA
# Target sequence (chain): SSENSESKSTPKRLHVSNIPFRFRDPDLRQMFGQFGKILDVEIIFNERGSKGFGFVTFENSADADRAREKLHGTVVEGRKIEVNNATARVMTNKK
Strand,RBNS enrichment (R)
AAGAUUAAAAGUUCAUAUAUAGGCUAAAGAUGUAACUAGGCCAUUUGUAUUUGUAUUCCCUUUUAUUUCCAAAAUAAAAUGAAAAAUCUUUUUUUAAUAAUUUCAUCCCU,0.881
UGUCAAAGCGCUACCAGCCAGGGGCAGGCCCCUGAUGCCCGGAAGCUCCUGCGUGCAUCCCCGGGAUGACCAGACUCCCGGACUCCUCAGGCAGUGCCCUUUCCUCCCAC,0.28
AUUCCAGUGAACAUUUAUUUUGUAUAUAAAAUUUUAAACCUAUUGUGUGAAGCUACCCUCAGGCUAUGUAGAUCAGAUGUAUAAAAAGCACAAAUGAAUAUCUCAAUUAC,0.798
GAUUAUCAUCUUGUGAGAAGAGAUGUUUAAACGUGGUAAAUCACUUCAUAUUACAAAACAGUUUUACACUUAAUAUGUUAACAUUGGGUGCAAUAAUUUAGUAGCAUUAG,0.344
UUAAACAGCAUUUUAAAGCACAGUCACUAGUAUUCCAGUUGUGUUUGUAGAAAAAAAAAAUCACAUCAUGGUGCUCCUGCGAUCAGCUUCUGAAGUGCUGGGAGCAUAGG,0.699
UGAGGAACCUGUAUUCCUCUUCUUCGUGAUAAUAUAAUCUCUAUUUUUUUAGGAAAACAAAAAUGAAAAACUACUCCAUUUGAGGAUUGUAAUUCCCACCCCUCUUGCUU,0.393
CCAUCUACUGCUGGCCAGGAGCCCCCAGUGCCCUGUGGUGGUGGACACCAUGCAGAACCAGAGCAGCCAGCUCUACGCAGCACUGCCUGAGAGGCUCUACAUAAUCCAGG,0.193
GUUACAGAUCCAAAGACAUAGAGUGAUGUGGGUGUCAGGAGACUGAAGAGAGGUGAAAGGCACACUUUCAACCUGUCAUUCAGCGUUUCUUUUGAGCUUAGUCAGCUGUA,0.275
UCUUGGGCGUUACAGCCUUUGUCUUUUUCUUUAGUCACCUUAAUACCCAGUCCUAUGCUGUAUCUCUGAUAGCCUAUAUAAAUGACAUAUAGGAAUAUUAUUUUCCAUAU,0.584
CUCUGUUCUUUCUAUAAGUACAGAGUGAAAUAAAAGUGAGAAGAAGAUUCAAUCGUAACUGUGUCAACAGUAUUGUGAAGUGAUCAUUUCUUGUAAAACUUGUAAAUAAA,0.239
UGUCCGCCCCUUGCCUGGAGACAGUUCUUCCCAUUUUAAACAAACAAACAAAAUUUAAGGCGUUUAUCCACAAGUUCUUGACUCGGGUACAGUGCGUUCCUGAGACACCC,0.397
AUGCAUGCCCUUCAGGGGAAGACUGUGAGUCAAGUUUAAUAAAUAAAAACCUAAUACUAAGCAAUAUGAAGCUGCACUCUGCUUUUAAGUGAGGCCAAGCCAAGUAAGCC,11.1

# Block 5
# Target: PABPC1L2, full length, GST fusion (mouse, UniProt A0ABA7IW68)
# Method: RNAcompete
# Form: RNA
# Sample: in vitro
# Concentration: 20 nM
# Notes: 7-mer, probes averaged, single round
# Baseline: mean of 7-mers
# Direction: higher = stronger binding
# Residues (chain): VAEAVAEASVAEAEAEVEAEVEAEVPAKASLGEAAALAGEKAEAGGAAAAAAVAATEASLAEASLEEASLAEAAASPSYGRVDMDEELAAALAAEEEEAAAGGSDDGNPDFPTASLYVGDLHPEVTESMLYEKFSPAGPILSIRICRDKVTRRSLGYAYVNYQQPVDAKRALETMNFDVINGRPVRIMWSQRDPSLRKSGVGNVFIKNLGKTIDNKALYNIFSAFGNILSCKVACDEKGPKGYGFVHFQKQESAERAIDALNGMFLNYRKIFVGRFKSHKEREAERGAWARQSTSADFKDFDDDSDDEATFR
Strand,7-mer Z-score
CAGAGCG,-0.0754
CCUAGCC,-0.291
GACCAGC,-0.135
UUGGAAU,-0.18
CCGGCCU,-0.46
AAACAGA,3.87
CACUGCU,-0.258
ACCCCCG,-0.539
AGUGGUG,-0.0409
GAUAAGU,-0.0428
GGCGUAG,0.0805
CCCCGCU,-0.525
CCGUGGU,-0.224
CAAACCG,-0.00108
CUGAGGG,0.102
AGUUGGG,0.0497
CGGAACG,-0.157
GACUUGU,-0.378
UCUAAGC,-0.316
UGGUGGC,0.00436
ACGAACC,-0.0989
AGCCUUC,-0.445
